Measurements of several laboratories.
A part holds a random share of what one study measured.

Sample 1 — technique: competition protein-binding microarray; molecule type: double-stranded DNA, one strand shown; sample: in vitro; tested at: 2 µM; with: Pho4 competitor, 0.05 µM; reading: higher = stronger binding
Target: Centromere-binding protein 1, full length, His-tagged (CBF1, Saccharomyces cerevisiae, UniProt P17106, residues 1-351)
Sequence of UniProt P17106 (whole entry, looked up): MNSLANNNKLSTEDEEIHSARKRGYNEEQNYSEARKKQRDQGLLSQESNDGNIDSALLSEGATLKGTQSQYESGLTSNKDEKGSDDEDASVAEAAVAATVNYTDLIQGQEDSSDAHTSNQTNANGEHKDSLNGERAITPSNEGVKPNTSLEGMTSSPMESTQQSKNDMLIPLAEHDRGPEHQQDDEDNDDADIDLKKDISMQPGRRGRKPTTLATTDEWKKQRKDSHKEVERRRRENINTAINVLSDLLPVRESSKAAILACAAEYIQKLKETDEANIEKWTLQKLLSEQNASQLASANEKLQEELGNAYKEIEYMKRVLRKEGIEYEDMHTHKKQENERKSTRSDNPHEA
Notes: whole 60-bp probe, lowest competitor level
The fluorescence intensity of `CTGATTCGTTGGGCTTACGTGATGGTTCCTGGCATTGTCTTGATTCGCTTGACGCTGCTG` is reported as 84.5 a.u.
The fluorescence intensity of `GTCTTGTCTCATTGGTCGGTGGGTGTCCCCACTTCAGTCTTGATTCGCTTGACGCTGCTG` is reported as 76.3 a.u.
`ACCTTGTTCCAATTGTTCGTGATGGATTTCAACGGAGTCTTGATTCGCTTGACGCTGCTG` gave a fluorescence intensity of 75.8 a.u.
`TGCGCAACAACTTGAAATGTGGGTGTATGTCTAGAAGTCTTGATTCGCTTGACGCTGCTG` has a fluorescence intensity of 73.1 a.u.
`CGTCCTAGTGATTGGAGCGTGGGTGCCATGAGGAAGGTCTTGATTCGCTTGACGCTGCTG` gave a fluorescence intensity of 98.8 a.u.
The fluorescence intensity of `CGGGGTTAAGTTTTTCACGTGTGCTGCTTGCAGCAGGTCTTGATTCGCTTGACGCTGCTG` is reported as 517 a.u.
For `GAAAGCCTGGTAGGACACGTGATGGCTTGTTCGCCAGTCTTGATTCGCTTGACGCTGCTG`, the fluorescence intensity was 3870 a.u.
`CTTTATGAGTACCGTCACGTTTCTTGTTGAAGATAAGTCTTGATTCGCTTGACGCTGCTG` gave a fluorescence intensity of 498 a.u.
`ACCGCTGAAACCAAACATGTGATGAATTGGTCAACAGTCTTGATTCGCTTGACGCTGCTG` has a fluorescence intensity of 630 a.u.
The fluorescence intensity of `CTTTCCCGATCTTGTATAGTGGGTGTAGCACATTTGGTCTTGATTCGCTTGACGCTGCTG` is reported as 77.7 a.u.
The fluorescence intensity of `AAATGTATACCACTTCACGTGCCAGCGAGTAGGTTTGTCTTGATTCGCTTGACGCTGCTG` is reported as 872 a.u.
The fluorescence intensity of `CCTTTCCAGATGGCTCACATGTCCGGTCGTCCTCCAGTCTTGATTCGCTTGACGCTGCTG` is reported as 138 a.u.
With `TCACTCCTGATGAAGCTCGTGTGAAGGAATTCAACCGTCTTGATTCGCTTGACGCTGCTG` the fluorescence intensity was 104 a.u.
`TCCGGGTTATACCATCACGTGATGGTAAATCCAAATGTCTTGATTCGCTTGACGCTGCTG` has a fluorescence intensity of 13400 a.u.
`CTTCTGTAAATTTTTCACGTGCGTTGACGCGCCCCGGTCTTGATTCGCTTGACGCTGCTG` gave a fluorescence intensity of 687 a.u.
With `CGGGGTTAAGTTTGGCACGTGGGTGGCTTGCAGCAGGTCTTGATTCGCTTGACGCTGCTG` the fluorescence intensity was 978 a.u.
`TGATTTCTCTATTTTATATTGCCTATTATTTTTTCAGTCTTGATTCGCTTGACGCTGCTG` gave a fluorescence intensity of 75.3 a.u.
`GCGCTGCTGGTGGTGCCCGTGGTGAAGCCAAGGTCGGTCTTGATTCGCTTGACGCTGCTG` has a fluorescence intensity of 51.5 a.u.
`CCCCTGTGCGGCTACGTCGTGCCGACCCACCATTTGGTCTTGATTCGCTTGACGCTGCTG` has a fluorescence intensity of 61.9 a.u.
For `CGGGGTTAAGTTTGTCACGTGGGTGGCTTGCAGCAGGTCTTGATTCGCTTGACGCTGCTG`, the fluorescence intensity was 3120 a.u.
For `ATGAAACCACTTTAGCACGATGAAATAGCAATATGTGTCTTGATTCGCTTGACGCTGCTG`, the fluorescence intensity was 72.5 a.u.
The fluorescence intensity of `CGGAAGCGCTCACTTCACGTGCTTTAAAAGCTTCTCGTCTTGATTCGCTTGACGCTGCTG` is reported as 1000 a.u.
For `TGCGCAACAACTTGACGAGTGGGTGTATGTCTAGAAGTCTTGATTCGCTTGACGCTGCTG`, the fluorescence intensity was 68.8 a.u.
With `ACTTGTCCAGAAAGGAACGTGACTCGCAATTGGAAGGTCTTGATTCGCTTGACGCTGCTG` the fluorescence intensity was 1210 a.u.
For `GACTTCTCCAAAGACAACGTGCTTTCCGTCCAACCAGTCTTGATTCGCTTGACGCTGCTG`, the fluorescence intensity was 134 a.u.

Sample 2 — technique: protein binding microarray; molecule type: double-stranded DNA, one strand shown; sample: in vitro; tested at: not given; relative to: not given; reading: higher = stronger binding
Target: Histone acetyltransferase KAT6A, both winged helices, GST fusion (KAT6A, Homo sapiens, UniProt Q92794, residues 1-181)
Notes: 8-mer, flanks averaged, mean of 2 arrays, mostly near background
Construct (chain): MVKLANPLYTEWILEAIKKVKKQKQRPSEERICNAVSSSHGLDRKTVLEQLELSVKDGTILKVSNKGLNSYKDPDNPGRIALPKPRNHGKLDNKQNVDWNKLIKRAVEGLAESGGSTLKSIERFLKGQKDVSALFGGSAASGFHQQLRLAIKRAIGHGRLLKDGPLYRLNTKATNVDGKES
With `CCTGCTAG` the E-score was -0.172.
For `CGTTGGCA`, the E-score was 0.107.
With `ATTAAATA` the E-score was 0.0341.
`ACCACAGG` has an E-score of -0.124.
For `ACCCTCAG`, the E-score was -0.253.
`GATAAGAC` has an E-score of 0.0315.
`CGCAAAAA` has an E-score of 0.197.
`CTCGCGAA` has an E-score of 0.0853.
`AGCGTGGC` gave an E-score of -0.00822.
For `TCCTTCCA`, the E-score was -0.311.
With `ATTGTTCG` the E-score was 0.115.
The E-score of `GAAGAACA` is reported as -0.0157.
The E-score of `ATATCTAA` is reported as -0.138.
The E-score of `ATCAGGCA` is reported as -0.207.
With `ACAGAATG` the E-score was -0.08.
With `GTTCTGGA` the E-score was -0.0229.
For `AAGGCGCA`, the E-score was 0.193.

Sample 3 — technique: protein-binding microarray; molecule type: double-stranded DNA, one strand shown; sample: in vitro; tested at: 250 nM; notes: 60-bp whole probe; with: salmon DNA 0.4 mg/ml; relative to: random background probes; reading: higher = stronger binding; all sequences stand within: GCCTAGCAC … GTCTTGATTCGCTTGACGCTGCTG
Target: Interferon regulatory factor 5, full length, phosphomimetic (IRF5, Homo sapiens, UniProt Q13568-2, residues 1-514, K96S/S451D/S453D/S456D/S462D)
The log fluorescence of `TTACGTATCGGTCTCGGTTAGTGCTAG` is reported as 8.14 z-score.
The log fluorescence of `GACGGACAGGGGTATCGGGACGTGCTA` is reported as 0.1 z-score.
The log fluorescence of `TCAGACTTTGGTTTGTAACTGTGCTAG` is reported as 0.164 z-score.
With `GTCGATATCAGTCTCGAGACGTGCTAG` the log fluorescence was 2.35 z-score.
The log fluorescence of `TTAGGTTTCCTATCCCTTTAGTGCTAG` is reported as 0.859 z-score.
With `TCACTGTTCTTTTCAGTACTGTGCTAG` the log fluorescence was 1.07 z-score.
`AGGTTCTACTCCGTTAGTTGGTGCTAG` has a log fluorescence of -0.00779 z-score.
`GACGGCTTCGGTTCCGGGACGTGCTAG` gave a log fluorescence of 0.395 z-score.
`GTGCCTTTATATACCTGAATGTGCTAG` has a log fluorescence of -0.00967 z-score.
For `GACGATCTGAGTTTCGAGACGTGCTAG`, the log fluorescence was 3.84 z-score.
The log fluorescence of `GACGGACTTGGGTTTCGGGACGTGCTA` is reported as 1.94 z-score.
`TTAGGTTCCGGTTTCGGTTTGTGCTAG` has a log fluorescence of 9.46 z-score.
With `GACGGTTTCCTAATCCTGACGTGCTAG` the log fluorescence was 0.285 z-score.
With `TTGGGTATCGACTTTCGGTTAGTGCTA` the log fluorescence was 9.64 z-score.
`TATGTTCCCTATATAAGGCGGTGCTAG` has a log fluorescence of 0.128 z-score.
`GACGGTATCGACACTCGGGACGTGCTA` gave a log fluorescence of 1.55 z-score.
The log fluorescence of `CTCTTTTTGCTTTCTTTATGGTGCTAG` is reported as 2.57 z-score.
`GACGATCTCAGTTTTGAGACGTGCTAG` has a log fluorescence of 0.111 z-score.
With `CCAGGGACAAAGCGGTGCGAGTGCTAG` the log fluorescence was -0.769 z-score.
The log fluorescence of `GACGAATTCAGACTGGAGACGTGCTAG` is reported as -0.119 z-score.
For `GACGGTCGCGGACTGGGGACGTGCTAG`, the log fluorescence was -0.659 z-score.

Sample 4 — technique: universal PBM; molecule type: double-stranded DNA, one strand shown; sample: in vitro; tested at: not given; reading: higher = stronger binding
Target: Sal-like protein 4, full length isoform B (SALL4, Homo sapiens, UniProt Q9UJQ4-2, residues 1-616)
Notes: 8-mer, flanks averaged, mean of replicates
With `CAGACTTC` the E-score was -0.1.
`AATGTTCC` gave an E-score of 0.0463.
For `GGCGAGCA`, the E-score was -0.304.
The E-score of `CGGCAAGA` is reported as -0.0292.
`GAATTCGC` has an E-score of -0.204.
For `CATCGGCA`, the E-score was -0.135.
`AAGTAAGA` gave an E-score of 0.101.
With `ATCGTGAG` the E-score was -0.0845.
For `ATGACTTG`, the E-score was 0.0752.
For `ATACGCCA`, the E-score was 0.0872.
With `AGATTCCG` the E-score was -0.0107.
For `TACAGGCA`, the E-score was 0.0793.
For `CAGATAAA`, the E-score was 0.153.
The E-score of `ACACCAAA` is reported as 0.22.
`AAAGAGCT` gave an E-score of -0.167.
`TGGGCCAA` has an E-score of -0.112.
With `CCGGTTAA` the E-score was -0.177.
With `ACGTGGCC` the E-score was -0.18.
The E-score of `TACAGCTA` is reported as -0.0333.
The E-score of `ACTGGGTG` is reported as -0.283.
With `ACTTGCGG` the E-score was -0.179.
With `GACTGTCA` the E-score was 0.00542.

Repeated from above (sample 1):
With `CGGGGTTAAGTTTGGCACGTGGGTGGCTTGCAGCAGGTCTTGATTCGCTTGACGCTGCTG` the fluorescence intensity was 978 a.u.
`TGATTTCTCTATTTTATATTGCCTATTATTTTTTCAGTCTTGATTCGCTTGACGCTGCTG` gave a fluorescence intensity of 75.3 a.u.
`GCGCTGCTGGTGGTGCCCGTGGTGAAGCCAAGGTCGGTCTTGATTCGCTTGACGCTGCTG` has a fluorescence intensity of 51.5 a.u.
`CCCCTGTGCGGCTACGTCGTGCCGACCCACCATTTGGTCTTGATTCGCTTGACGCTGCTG` has a fluorescence intensity of 61.9 a.u.
For `CGGGGTTAAGTTTGTCACGTGGGTGGCTTGCAGCAGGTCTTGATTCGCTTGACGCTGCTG`, the fluorescence intensity was 3120 a.u.
